Measurements of several laboratories.
Every numbered part comes from another study and shows a few of its results, in no order. Positions count from the first letter of the parent shown.

Set 1
Target: ABI1, truncated, D143A, DHFR fusion (Arabidopsis thaliana)
Technique: DHFR PCA, deep sequencing
Sample: yeast
Setting: methotrexate growth selection, single substitutions
Added: (+)-ABA 710 µM
Reference: wild-type fitted maximum
Reading: higher = stronger binding
Starting sequence: PYL1, truncated, DHFR fusion (Arabidopsis thaliana); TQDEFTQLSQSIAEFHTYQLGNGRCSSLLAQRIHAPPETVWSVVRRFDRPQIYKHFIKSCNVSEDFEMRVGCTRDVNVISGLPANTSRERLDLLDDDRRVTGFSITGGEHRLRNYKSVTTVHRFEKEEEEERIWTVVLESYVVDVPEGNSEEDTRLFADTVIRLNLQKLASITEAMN; partner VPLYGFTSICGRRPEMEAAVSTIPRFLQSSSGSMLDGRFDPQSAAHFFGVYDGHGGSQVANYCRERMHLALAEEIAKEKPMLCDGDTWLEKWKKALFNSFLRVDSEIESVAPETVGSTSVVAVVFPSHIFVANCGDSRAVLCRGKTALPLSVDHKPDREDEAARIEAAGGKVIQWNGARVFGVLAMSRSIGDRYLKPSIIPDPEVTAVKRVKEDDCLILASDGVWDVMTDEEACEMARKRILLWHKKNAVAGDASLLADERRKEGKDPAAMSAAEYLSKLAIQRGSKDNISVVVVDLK
| Substitution | relative binding score [%] |
| --- | --- |
| G102Y | -2.09 |
| P50A | 60.9 |
| E89P | -14.1 |
| R98C | 96.9 |
| I162L | 84.5 |
| S11I | 96.8 |
| D3F | 101 |
| E151W | 89.4 |
| V43L | 101 |
| E151F | 95.9 |
| G81C | 77.9 |
| L164P | 15.1 |
| V40G | -10.8 |

Set 2
Target: RNA binding protein fox-1 homolog 2, RRM domain, GST-SBP tag (RBFOX2, Homo sapiens, UniProt O43251-10, residues 100-194)
Technique: RNA Bind-n-Seq
Molecule type: RNA
Sample: in vitro
Tested at: 365 nM
Setting: natural RNA segment, single round, ends assumed
Reference: no-protein control
Reading: higher = stronger binding
Shared flanks, not repeated: GGGAGUUCUACAGUCCGACGAUC … UGGAAUUCUCGGGUGCCAA
Construct (chain): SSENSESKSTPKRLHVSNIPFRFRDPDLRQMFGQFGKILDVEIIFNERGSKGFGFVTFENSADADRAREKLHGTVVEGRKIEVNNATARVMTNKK
| Oligonucleotide | RBNS enrichment (R) |
| --- | --- |
| CGCCAUUAGACUGAAAAAACAAUGGCCUGAUGGUUGAAGUACAUUUUCAUUUGCAGAAUAUUAAAGCACUAAAAAAAAAAAAAACCUAUCUUGGAAGUUGUAUGAUUUGC | 0.941 |
| UUCUCUUUUGUUGUCUUAUCAAAGUUUAAUGGAGACACUUUCAUAAUUGUUGUUGUGUGUACAUUUGAUUUUCAUAAAGAUGGUAGUAAGUCAAUGCAUUAACCCUCAUC | 0.369 |
| AAAUGUUCGUUUCUUCUGAAGUAAAUAUACAUAUAUAAAUAAAUGUAUAAAUACUGCUUUGUAUCUGAGCUUGCCUCCUUGUCUCUUCUUGGGAUUGGUCUGGUGGGAGA | 0.574 |
| UAAGCCAAAAAUAAAUACGUUAACAGAAAAAUGAUUUAGGAUAUAGCUUGAAUGCUUAAAUAUGUGCACCUUUACAAACCUCUCAGUGUAUUCUUGGAGUUCUUGAAAUG | 1.2 |
| UCAGCCAUGCUGCCGCCGAAGGGUGGCCCCCUCACCGAAUCUCCUUAGGAAGGGUUUUAUACAGACAGGUUAAAGGGCUCUGGUUUCAAGUCCCUUGUCCAUGCUGCACU | 0.271 |
| UCUAGAAUCAGAGGCUACCCCUGCCUGUGUGGGGAGGGCCUUUGCUGGCAAGAGAAGCUCAGGCUCAGAGAUGUCUGGACUUUCUCUCCCUCCCUCUCUCUCUCUCUCUC | 0.959 |
| AAAAAAAAAAAGUCAUUUUAGCUGCCACCUAUGACUUUGCCACAUAGCUGAACUGUGUUUACUGGAAAAAUUCAGAGGCCUAAAGUUUAAAAUAAAAUUUACUUCCGACG | 0.604 |

Set 3
Target: Ras GTPase-activating protein-binding protein 1, RRM domain (G3BP1, Homo sapiens, UniProt Q13283)
UniProt Q13283, sequence (whole entry, looked up): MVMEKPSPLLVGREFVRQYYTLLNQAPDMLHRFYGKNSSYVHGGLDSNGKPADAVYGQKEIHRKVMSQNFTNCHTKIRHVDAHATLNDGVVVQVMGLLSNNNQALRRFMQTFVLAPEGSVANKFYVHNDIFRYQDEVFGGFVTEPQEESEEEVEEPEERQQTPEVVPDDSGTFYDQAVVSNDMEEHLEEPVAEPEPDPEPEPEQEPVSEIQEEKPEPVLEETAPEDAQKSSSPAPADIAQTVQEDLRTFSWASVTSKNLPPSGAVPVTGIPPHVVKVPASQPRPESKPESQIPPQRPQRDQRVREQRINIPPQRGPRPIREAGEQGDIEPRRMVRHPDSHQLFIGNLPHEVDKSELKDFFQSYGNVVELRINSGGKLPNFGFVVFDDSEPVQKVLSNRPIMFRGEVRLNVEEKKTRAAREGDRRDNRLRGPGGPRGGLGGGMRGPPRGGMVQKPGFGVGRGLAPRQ
Technique: RNA Bind-n-Seq
Molecule type: RNA
Sample: in vitro
Tested at: 1 µM
Setting: whole 134-nt RNA, ends assumed
Added: 150 mM KCl
Reference: input library
Reading: higher = stronger binding
Shared flanks, not repeated: GGGAGUUCUACAGUCCGACGAUC … UGGAAUUCUCGGGUGUCAAGG
| Oligonucleotide | log2 enrichment |
| --- | --- |
| UCAAGUCCUGUGCUACACAUCGUAUGUACCGAAUCGGUGGAAAGGUUUUUUUGGAAAGUAUUAUGUUACGCCGUUCGGAUCUGCACUUCC | -0.192 |
| UAACUUUAGAGGAGGAUCUGAUGGAUAUGGCAGUGGACGUGGAUUUGGGGAUGGCUAUAAUGGGUAUGGAGGAGGACCUGGAGGCGGCAA | -0.356 |
| UCCUGUGCUACACAUCGUAUGUACCGAAUCGGGAAAAAAAGGGAAAAAGGGUUUUUGGGAAAGUAUUAUGUUACGCCGUUCGGAUCUGCA | 0.1 |
| CACAGACAACACGCACCCACACAGACACAGAGGGAAGGGGUUGGGAUGGGGACAGGGUGCACAGCAGGGCGGGGUAGGACCCCAGCCGCU | -0.24 |
| UUGCCCUGGUGGCAUGCGGGGAGGAAGAGGUGGCCUCAUGGAUCGUGGUGGUCCCGGUGGAAUGUUCAGAGGUGGCCGUGGUGGAGACAG | 0.728 |
| CAAGUCCUGUGCUACACAUCGUAUGUACCGAAUCGGGGUGGGGAAAGGGGUGGGGAAAGUAUUAUGUUACGCCGUUCGGAUCUGCACUUC | 1.03 |
| UCCUGUGCUACACAUCGUAUGUACCGAAUCGGGAAAAAAGGGGAAAAAAGGAAAAAAGGGAAAGUAUUAUGUUACGCCGUUCGGAUCUGC | 0.0395 |

Set 4
Target: Cyclic AMP-responsive element-binding protein 1 (CREB1, Homo sapiens, UniProt P16220, residues 1-327, full length assumed)
UniProt P16220, sequence (whole entry, looked up): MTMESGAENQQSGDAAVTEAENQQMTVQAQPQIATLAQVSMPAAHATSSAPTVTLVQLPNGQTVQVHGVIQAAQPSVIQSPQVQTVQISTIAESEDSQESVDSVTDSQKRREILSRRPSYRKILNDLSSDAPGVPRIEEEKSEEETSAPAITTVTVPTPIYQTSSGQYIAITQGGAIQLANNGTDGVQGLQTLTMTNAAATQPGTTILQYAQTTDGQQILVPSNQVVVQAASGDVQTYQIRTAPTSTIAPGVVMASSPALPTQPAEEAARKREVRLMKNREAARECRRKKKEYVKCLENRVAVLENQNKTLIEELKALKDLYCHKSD
Technique: protein-binding microarray
Molecule type: double-stranded DNA, one strand shown
Sample: in vitro
Tested at: not given
Setting: k-mer, scored over probes, only values ≥0.25
Reading: higher = stronger binding
| Oligonucleotide | E-score |
| --- | --- |
| ATATAAA | 0.263 |
| ATAAATG | 0.263 |
| CTGACGC | 0.311 |
| ATGATTA | 0.26 |
| ACACGTA | 0.409 |
| GACGACA | 0.256 |
| CGTGTGA | 0.267 |
| CTGTTAC | 0.26 |
| AATGACG | 0.477 |
| GTGACGA | 0.438 |
| ATAATCA | 0.254 |
| CACGTCA | 0.489 |
